Experimental data of several laboratories.
Protocols differ between the studies behind these lines. Values joined by “and” are separate records of one study, mostly repeats; a detail may differ. ± gives the spread as reported.
Sequence of UniProt P05181 (whole entry, looked up): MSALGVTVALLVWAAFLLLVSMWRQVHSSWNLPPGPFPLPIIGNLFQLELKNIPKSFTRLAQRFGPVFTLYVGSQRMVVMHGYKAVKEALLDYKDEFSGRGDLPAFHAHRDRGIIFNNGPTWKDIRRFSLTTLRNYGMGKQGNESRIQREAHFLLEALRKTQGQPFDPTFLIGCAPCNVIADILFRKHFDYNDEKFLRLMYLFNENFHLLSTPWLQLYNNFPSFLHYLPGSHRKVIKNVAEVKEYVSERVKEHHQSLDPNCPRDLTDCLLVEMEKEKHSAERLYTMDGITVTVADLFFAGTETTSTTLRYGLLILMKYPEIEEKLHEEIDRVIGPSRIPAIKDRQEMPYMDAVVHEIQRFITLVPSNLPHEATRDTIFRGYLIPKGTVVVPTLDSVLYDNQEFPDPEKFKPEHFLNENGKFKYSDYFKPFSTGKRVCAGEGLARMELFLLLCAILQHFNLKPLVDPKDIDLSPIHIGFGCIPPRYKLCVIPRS
Sequence of UniProt P05177 (whole entry, looked up): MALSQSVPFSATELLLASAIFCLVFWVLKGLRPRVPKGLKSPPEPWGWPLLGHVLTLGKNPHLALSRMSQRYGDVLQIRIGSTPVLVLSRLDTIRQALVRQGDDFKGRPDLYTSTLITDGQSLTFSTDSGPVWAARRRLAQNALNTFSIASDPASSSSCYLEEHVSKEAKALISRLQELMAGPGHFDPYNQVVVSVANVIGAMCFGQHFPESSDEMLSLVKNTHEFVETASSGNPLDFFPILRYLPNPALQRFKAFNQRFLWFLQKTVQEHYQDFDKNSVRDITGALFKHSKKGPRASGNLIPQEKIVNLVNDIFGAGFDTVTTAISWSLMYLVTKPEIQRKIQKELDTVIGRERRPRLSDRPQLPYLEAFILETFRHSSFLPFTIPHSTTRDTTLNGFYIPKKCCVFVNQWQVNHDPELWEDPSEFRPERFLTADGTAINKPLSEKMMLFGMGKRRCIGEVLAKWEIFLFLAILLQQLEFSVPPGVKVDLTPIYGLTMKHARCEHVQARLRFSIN
Sequence of UniProt P41145 (whole entry, looked up): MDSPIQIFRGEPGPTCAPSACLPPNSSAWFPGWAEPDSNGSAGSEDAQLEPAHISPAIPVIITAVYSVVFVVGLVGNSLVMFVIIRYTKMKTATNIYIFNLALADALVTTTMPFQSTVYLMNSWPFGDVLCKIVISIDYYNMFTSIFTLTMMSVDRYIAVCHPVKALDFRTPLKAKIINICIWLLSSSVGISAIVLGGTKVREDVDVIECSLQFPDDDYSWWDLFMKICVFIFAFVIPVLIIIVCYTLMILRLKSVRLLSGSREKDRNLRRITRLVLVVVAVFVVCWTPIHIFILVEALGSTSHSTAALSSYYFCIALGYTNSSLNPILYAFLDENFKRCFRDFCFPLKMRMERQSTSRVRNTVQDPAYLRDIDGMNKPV
Sequence of UniProt P31652 (whole entry, looked up): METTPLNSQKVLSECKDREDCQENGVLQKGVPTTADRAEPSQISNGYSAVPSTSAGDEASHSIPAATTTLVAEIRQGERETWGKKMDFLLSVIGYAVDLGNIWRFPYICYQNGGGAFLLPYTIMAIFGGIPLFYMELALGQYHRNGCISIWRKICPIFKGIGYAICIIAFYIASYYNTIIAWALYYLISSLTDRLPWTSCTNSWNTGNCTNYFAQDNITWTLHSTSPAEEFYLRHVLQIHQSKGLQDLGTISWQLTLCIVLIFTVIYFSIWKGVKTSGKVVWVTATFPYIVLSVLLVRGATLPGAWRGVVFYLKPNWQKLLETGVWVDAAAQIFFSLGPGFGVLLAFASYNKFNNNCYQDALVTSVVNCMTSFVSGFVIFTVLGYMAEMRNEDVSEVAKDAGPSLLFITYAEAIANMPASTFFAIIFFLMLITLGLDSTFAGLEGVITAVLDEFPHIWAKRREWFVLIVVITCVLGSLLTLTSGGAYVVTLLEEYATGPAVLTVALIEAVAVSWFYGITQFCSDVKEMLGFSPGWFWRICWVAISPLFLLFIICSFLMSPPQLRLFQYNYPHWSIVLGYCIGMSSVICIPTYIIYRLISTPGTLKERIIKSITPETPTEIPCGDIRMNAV

SMILES | tested on | test | test system | conditions | quantity | result
COc1cc2c(c(OC)c1OC)-c1ccc(OC)c(=O)cc1[C@@H](NC(C)=O)CC2 | – | – | – | pH 7.4 | chromatographic logD | 2.17
CCO | Cytochrome P450 2E1 (CYP2E1, Homo sapiens, UniProt P05181) | – | – | concentration not given | inhibition | 40% and > 80%
C[C@H](N)C(=O)c1ccccc1 | Sodium-dependent serotonin transporter (Slc6a4, Rattus norvegicus, UniProt P31652) | serotonin release, releaser | rat brain synaptosomes | with: [3H]5-HT | EC50 | 4.74 µM
CC[C@H](C)[C@H](NC(=O)[C@H](CCCCN)NC(=O)[C@H](CCC(N)=O)NC(=O)[C@H](Cc1ccccc1)NC(=O)[C@@H](NC(=O)[C@H](CCCCN)NC(=O)[C@H](CCCCN)NC(=O)[C@H](CC(C)C)NC(=O)[C@H](C)NC(=O)[C@H](CC(N)=O)NC(=O)[C@@H](N)CC(C)C)C(C)C)C(=O)N[C@@H](Cc1c[nH]cn1)C(=O)N[C@@H](CCC(=O)O)C(=O)N[C@@H](C)C(N)=O | mouse erythrocytes | – | – | – | HC10 | 256 µM
CC(C)C[C@H](NC(=O)[C@@H](NC(=O)[C@H](C)NC(=O)[C@@H](NC(=O)[C@@H](NC(=O)[C@H](CC(N)=O)NC(=O)[C@H](Cc1ccc(O)cc1)NC(=O)[C@H](CC(C)C)NC(=O)[C@@H](N)CO)[C@@H](C)O)C(C)C)[C@@H](C)O)C(=O)O | – | RP-HPLC | human PBMC cytosol | 37 °C, DMSO control condition | half-life | 33.9 min
CCN(CC)C(=O)OCc1ccc(S(=O)(=O)CC(C[C@H]2O[C@@H]3C[C@]4(C)CC[C@H]5[C@H](C)CC[C@@H]([C@H]2C)[C@@]35OO4)C[C@H]2O[C@@H]3C[C@]4(C)CC[C@H]5[C@H](C)CC[C@@H]([C@H]2C)[C@@]35OO4)cc1 | Plasmodium berghei | – | ANKA, infected mice | oral, 54 mg/kg single dose, 24 h post-infection | mean survival time | 16.4 days
Oc1ccc2c3c1O[C@H]1c4[nH]c5c(c4C[C@@]4(O)[C@@H](C2)N(CC2CC2)CC[C@]314)C[C@@]1(O)[C@H]2Cc3ccc(O)c4c3[C@@]1(CCN2CC1CC1)[C@H]5O4 | Kappa-type opioid receptor (OPRK1, Homo sapiens, UniProt P41145) | – | – | with: 140 mM sodium | Emax | 25.2 ± 7.07%
O=c1cc(-c2ccccc2)oc2c1ccc1ccccc12 | Cytochrome P450 1A2 (CYP1A2, Homo sapiens, UniProt P05177) | enzyme activity, inhibitor | pooled human liver microsomes | concentration not given | remaining activity | 25.2%
CN1C(=O)N[C@H]2[C@@H]3NC(=O)c4ccc(Br)n4[C@@H]3C[C@]21O | – | LC-MS | human AB serum | 50 µM, 24 h, 37 °C | recovery | 65 to 90%
COc1ccc(C[C@H]2NC[C@H](O)[C@H]2OC(C)=O)cc1 | LMH chicken hepatoma cells | cytotoxicity | – | – | CC50 | 58.5 µM
CCCC[C@H]1NC(=O)[C@H](Cc2ccc(F)cc2)NC(=O)[C@H](CCCNC(=N)N)NC(=O)[C@@H](Cc2ccc3ccccc3c2)NC(=O)[C@H](CCCNC(=N)N)NC(=O)[C@H](CCCNC(=N)N)NC(=O)[C@H](CCC(N)=O)NC(=O)C[C@@H](CCc2ccccc2)NC(=O)[C@@H]2CCCCN2C(=O)C(=O)C(C)(C)COC1=O | K-Ras G12V-RalGDS interaction | protein-protein interaction, inhibitor, bead binding | – | 10 µM, 60 min, with: 0.15 µM labelled K-Ras G12V | inhibition | inhibited
CNCCCN1c2ccccc2CCc2ccccc21 | alpha1-acid glycoprotein (human) | binding, isothermal titration calorimetry | – | pH 7.4, 30 °C | Kd | 149 µM
